Published values gathered from unrelated publications.
Each numbered part is a random draw from the data of one study; scales do not carry over between parts.

Series 1
Target: Histone acetyltransferase KAT6A, winged helix 2, GST fusion (KAT6A, Homo sapiens, UniProt Q92794, residues 85-181)
Method: protein binding microarray
Form: double-stranded DNA, one strand shown
Matrix: in vitro
Tested at: not given
Notes: 8-mer, flanks averaged, mean of 2 arrays, mostly near background
Reference: not given
Direction: higher = stronger binding
Target sequence (chain): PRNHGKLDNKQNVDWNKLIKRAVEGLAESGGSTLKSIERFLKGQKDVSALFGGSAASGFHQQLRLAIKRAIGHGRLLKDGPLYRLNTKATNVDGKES
For `GCATGGAC`, the E-score was 0.0662.
`AAGGGGCC` has an E-score of 0.0852.
With `CGGATGAA` the E-score was 0.189.
`CAAATCAA` has an E-score of -0.103.

Series 2
Target: Sal-like protein 4, full length isoform A (SALL4, Homo sapiens, UniProt Q9UJQ4, residues 1-1053)
UniProt Q9UJQ4, sequence (whole entry, looked up): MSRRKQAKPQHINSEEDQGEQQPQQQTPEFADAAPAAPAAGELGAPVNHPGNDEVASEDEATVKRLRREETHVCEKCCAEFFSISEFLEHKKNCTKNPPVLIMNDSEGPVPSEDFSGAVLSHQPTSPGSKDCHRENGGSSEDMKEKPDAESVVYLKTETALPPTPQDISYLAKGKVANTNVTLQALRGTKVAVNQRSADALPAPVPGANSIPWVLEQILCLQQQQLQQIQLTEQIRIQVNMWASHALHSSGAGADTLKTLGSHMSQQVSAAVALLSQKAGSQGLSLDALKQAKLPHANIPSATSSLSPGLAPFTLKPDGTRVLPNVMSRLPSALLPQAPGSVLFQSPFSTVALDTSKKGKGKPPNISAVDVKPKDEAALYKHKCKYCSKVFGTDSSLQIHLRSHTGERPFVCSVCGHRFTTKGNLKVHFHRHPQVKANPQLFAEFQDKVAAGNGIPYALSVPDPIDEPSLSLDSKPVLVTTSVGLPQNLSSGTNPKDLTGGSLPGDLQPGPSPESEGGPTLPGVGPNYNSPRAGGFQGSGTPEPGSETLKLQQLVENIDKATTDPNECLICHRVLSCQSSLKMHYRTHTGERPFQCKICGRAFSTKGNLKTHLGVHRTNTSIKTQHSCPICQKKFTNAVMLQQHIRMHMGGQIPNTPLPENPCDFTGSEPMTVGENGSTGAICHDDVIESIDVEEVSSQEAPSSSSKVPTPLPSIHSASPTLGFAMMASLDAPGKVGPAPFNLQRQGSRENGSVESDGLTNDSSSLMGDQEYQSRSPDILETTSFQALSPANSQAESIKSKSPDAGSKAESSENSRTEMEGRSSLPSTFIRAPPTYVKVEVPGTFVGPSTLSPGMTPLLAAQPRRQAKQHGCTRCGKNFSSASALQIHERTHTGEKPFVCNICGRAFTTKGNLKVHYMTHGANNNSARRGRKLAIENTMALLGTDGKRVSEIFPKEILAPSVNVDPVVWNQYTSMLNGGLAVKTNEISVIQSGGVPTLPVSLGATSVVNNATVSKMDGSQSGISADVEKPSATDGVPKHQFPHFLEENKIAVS
Method: universal PBM
Form: double-stranded DNA, one strand shown
Matrix: in vitro
Tested at: 600 nM
Notes: 8-mer, flanks averaged, mean of replicates
Direction: higher = stronger binding
The E-score of `GACCGGGC` is reported as -0.397.
For `CGGAGGGC`, the E-score was -0.284.
With `ATGAAGCC` the E-score was 0.0481.
`AACAATGT` gave an E-score of 0.223.

Series 3
Target: Fragile X messenger ribonucleoprotein 1, C-terminal low-complexity region (Fmr1, Mus musculus, UniProt P35922)
Method: RNA Bind-n-Seq
Form: RNA
Matrix: in vitro
Tested at: 200 nM
Notes: whole 134-nt RNA, ends assumed
With: 150 mM LiCl
Reference: input library
Direction: higher = stronger binding
Each molecule: 7-deaza-guanosine replaces G
`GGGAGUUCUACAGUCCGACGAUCUCAAGUCCUGUGCUACACAUCGUAUGUACCGAAUCGGGGAAGGGAAGGGGAAGGAAAGUAUUAUGUUACGCCGUUCGGAUCUGCACUUCCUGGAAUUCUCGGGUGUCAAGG` has a log2 enrichment of -1.05.
With `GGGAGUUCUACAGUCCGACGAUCUUUCUCCAAGGACAUCAAGGUGCCCAAGAGCCGCUACCUGGGCUACAUCAAGGACUACGAGGGAGCGACGCUGAUGGAGUGUGAGCUGAAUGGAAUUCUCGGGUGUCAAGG` the log2 enrichment was -2.
`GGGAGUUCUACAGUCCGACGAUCCCUGUGCUACACAUCGUAUGUACCGAAUCGGCCCCCCCGGGCCCCCCCGGGGCCCCCCCGGAAAGUAUUAUGUUACGCCGUUCGGAUCUGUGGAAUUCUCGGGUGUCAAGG` has a log2 enrichment of 0.276.
The log2 enrichment of `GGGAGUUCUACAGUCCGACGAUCGUCCUGUGCUACACAUCGUAUGUACCGAAUCAAACCCCCCCAAAUUUUUAAACCCAAAAAAGUAUUAUGUUACGCCGUUCGGAUCUGCACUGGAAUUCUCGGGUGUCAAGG` is reported as 1.36.
For `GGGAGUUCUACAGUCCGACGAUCUCAAGUCCUGUGCUACACAUCGUAUGUACCGAAUCGGGUUGGGGUUGGGUUGGGGAAAGUAUUAUGUUACGCCGUUCGGAUCUGCACUUCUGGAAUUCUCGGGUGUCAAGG`, the log2 enrichment was -0.111.
`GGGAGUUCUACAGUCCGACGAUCACCAUGCAGGUGGGCAUGUUUGGGAAGUGGGGCAAGGGGGGGAUAGGGAGGGGGGUAACACUUUGGGAACAGGUGGUCCCAGGUCGUUUCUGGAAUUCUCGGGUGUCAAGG` gave a log2 enrichment of 1.35.

Single results of other studies
The fold induction of `PhoQ, residues 284 288 289 292 302 303 GLASVI` is reported as 1.67 (PhoP, residues 12 14 15 18 19 LHSVW (Escherichia coli, UniProt P23836); Sort-seq, item: YFP reporter; E. coli; PhoQ-PhoP variant library, with: 10 µM Mg2+; reference: high Mg2+ state, higher = stronger signaling).

A few entries again (series 2):
For `CGGAGGGC`, the E-score was -0.284.
With `ATGAAGCC` the E-score was 0.0481.
